Measurements of several laboratories.
Each numbered part is a random draw from the data of one study; scales do not carry over between parts. Positions count from the first letter of the parent shown.

Block 1 — technique: protein binding microarray; form: double-stranded DNA, one strand shown; sample: in vitro; concentration: not given; baseline: not given; direction: higher = stronger binding
Target: Histone acetyltransferase KAT6A, winged helix 1, GST fusion (KAT6A, Homo sapiens, UniProt Q92794, residues 1-85)
Setting: 8-mer, flanks averaged, mean of 2 arrays, mostly near background
Construct (chain): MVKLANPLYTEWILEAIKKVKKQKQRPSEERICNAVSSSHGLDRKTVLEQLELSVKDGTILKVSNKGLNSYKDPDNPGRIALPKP
`GAAAACAA` gave an E-score of -0.128.
`ACGGCAGA` gave an E-score of 0.258.
For `CTTCTATC`, the E-score was -0.0652.
`ACTCATCA` gave an E-score of -0.0863.
`AGGTGCCA` gave an E-score of -0.311.
The E-score of `GTGATGTA` is reported as -0.0778.
For `AACTACAT`, the E-score was -0.138.
For `ACACCCTA`, the E-score was -0.214.

Block 2 — target: CREM, bZIP domain (human); technique: DHFR protein complementation; sample: yeast; baseline: wild-type JUN-FOS pair; direction: higher = stronger binding
Setting: single substitutions, most at no-binding floor
Starting sequence: JUN, bZIP domain (human); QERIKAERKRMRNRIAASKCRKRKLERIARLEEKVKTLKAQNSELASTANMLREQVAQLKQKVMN; partner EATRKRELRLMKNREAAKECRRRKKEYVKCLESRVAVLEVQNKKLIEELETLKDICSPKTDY
The binding fitness of `E32G` is reported as -1.51 natural log.
The binding fitness of `R30S` is reported as -1.41 natural log.
With `N42L` the binding fitness was -1.5 natural log.
With `Q55Y` the binding fitness was -1.54 natural log.
`R53S` has a binding fitness of -1.54 natural log.
`N42V` has a binding fitness of -1.5 natural log.
The binding fitness of `L38K` is reported as -1.53 natural log.
`A49S` has a binding fitness of -1.41 natural log.

Block 3 — technique: protein-binding microarray; form: double-stranded DNA, one strand shown; sample: in vitro; concentration: not given; direction: higher = stronger binding
Target: Myc proto-oncogene protein, bHLH-zipper, MAX partner unstated (MYC, Homo sapiens, UniProt P01106, residues 368-449)
UniProt P01106, sequence (368-449, looked up): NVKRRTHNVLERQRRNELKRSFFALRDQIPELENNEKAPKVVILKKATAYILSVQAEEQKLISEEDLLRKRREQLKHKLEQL
Setting: k-mer, scored over probes, only values ≥0.25
`GGGCGGGA` gave an E-score of 0.301.
For `ACATGGCG`, the E-score was 0.398.
`CGTGACCC` has an E-score of 0.277.
`CATGTGAC` has an E-score of 0.462.
The E-score of `ACGAGACA` is reported as 0.29.
For `CACCGTGG`, the E-score was 0.362.
For `AACGTGTA`, the E-score was 0.349.
`ATGCGCTC` gave an E-score of 0.3.

Block 4 — target: CCND1, cyclin fold, Cln2 fusion (human); technique: yeast growth competition, sequencing; sample: yeast; setting: strong parent motif; baseline: not given; direction: higher = stronger binding; starting sequence: viral docking peptide; YKVKRRLVFGADD
For `G10Q`, “normalised enrichment score” read 1.51.
`V3G` — result for “normalised enrichment score”: 0.418.
`K4L`: “normalised enrichment score” 0.68.
`V8T`: “normalised enrichment score” 3.61.
For `R5Y`, “normalised enrichment score” read 0.0838.
For `L7G`, “normalised enrichment score” read -0.0485.
For `K4S`, “normalised enrichment score” read 2.74.
`G10N`: “normalised enrichment score” 2.02.
`L7K` — result for “normalised enrichment score”: -0.221.
`G10F`: “normalised enrichment score” 0.586.
For `K2W`, “normalised enrichment score” read 0.265.
Under “normalised enrichment score”, `F9K` is recorded as -0.154.
`D12T` — result for “normalised enrichment score”: 1.3.

A few entries again (block 4):
`G10N`: “normalised enrichment score” 2.02.
`L7K` — result for “normalised enrichment score”: -0.221.
`G10F`: “normalised enrichment score” 0.586.
For `K2W`, “normalised enrichment score” read 0.265.
Under “normalised enrichment score”, `F9K` is recorded as -0.154.
`D12T` — result for “normalised enrichment score”: 1.3.
